Experimental data collected from several papers.
A part holds a random share of what one study measured. “And” joins repeats or separate records; there may be more than shown. Numbers after ± are the reported error.
Chain of UniProt O75582 (whole entry, looked up): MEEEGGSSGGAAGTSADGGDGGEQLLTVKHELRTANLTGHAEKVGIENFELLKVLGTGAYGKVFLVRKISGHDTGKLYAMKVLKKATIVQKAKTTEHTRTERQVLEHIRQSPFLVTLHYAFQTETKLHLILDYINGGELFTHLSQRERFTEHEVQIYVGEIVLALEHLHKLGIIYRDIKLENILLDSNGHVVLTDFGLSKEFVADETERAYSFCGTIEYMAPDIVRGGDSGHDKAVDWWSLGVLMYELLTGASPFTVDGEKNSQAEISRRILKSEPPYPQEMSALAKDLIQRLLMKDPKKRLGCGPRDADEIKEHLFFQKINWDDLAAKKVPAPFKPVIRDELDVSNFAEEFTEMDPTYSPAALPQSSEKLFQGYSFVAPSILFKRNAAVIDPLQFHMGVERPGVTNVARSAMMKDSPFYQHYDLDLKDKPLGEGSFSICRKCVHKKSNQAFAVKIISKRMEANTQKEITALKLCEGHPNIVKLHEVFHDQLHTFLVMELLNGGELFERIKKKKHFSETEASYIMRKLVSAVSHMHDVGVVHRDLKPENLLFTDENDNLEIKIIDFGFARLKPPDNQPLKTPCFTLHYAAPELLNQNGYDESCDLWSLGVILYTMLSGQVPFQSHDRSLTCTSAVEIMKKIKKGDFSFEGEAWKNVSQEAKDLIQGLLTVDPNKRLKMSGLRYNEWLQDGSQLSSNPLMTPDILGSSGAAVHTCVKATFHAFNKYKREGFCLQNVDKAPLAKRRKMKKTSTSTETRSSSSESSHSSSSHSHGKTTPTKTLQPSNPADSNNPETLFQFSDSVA
Chain of UniProt P68400 (whole entry, looked up): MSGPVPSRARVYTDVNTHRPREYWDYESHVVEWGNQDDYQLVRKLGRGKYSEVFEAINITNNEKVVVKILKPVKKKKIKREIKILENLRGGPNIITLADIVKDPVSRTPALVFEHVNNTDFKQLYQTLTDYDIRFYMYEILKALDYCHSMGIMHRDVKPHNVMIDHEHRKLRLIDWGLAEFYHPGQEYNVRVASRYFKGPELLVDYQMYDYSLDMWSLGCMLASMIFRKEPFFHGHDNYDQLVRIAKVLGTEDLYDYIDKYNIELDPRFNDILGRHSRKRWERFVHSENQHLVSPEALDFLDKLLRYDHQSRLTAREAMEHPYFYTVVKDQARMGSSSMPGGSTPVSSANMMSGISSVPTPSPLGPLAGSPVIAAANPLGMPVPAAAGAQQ
Chain of UniProt Q9NWZ3 (whole entry, looked up): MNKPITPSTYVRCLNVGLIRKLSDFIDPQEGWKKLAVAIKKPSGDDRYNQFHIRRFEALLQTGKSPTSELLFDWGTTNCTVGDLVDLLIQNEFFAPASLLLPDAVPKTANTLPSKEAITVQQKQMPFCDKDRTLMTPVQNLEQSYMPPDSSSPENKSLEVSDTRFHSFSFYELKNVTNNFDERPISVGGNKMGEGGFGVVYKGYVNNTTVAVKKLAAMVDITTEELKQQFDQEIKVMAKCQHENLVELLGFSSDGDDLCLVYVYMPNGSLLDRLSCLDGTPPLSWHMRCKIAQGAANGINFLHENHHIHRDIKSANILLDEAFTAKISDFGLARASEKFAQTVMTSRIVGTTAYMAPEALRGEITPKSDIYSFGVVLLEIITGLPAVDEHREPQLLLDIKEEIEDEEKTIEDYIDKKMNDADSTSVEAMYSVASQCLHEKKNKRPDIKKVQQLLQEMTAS
Chain of UniProt Q9Y3S1 (whole entry, looked up): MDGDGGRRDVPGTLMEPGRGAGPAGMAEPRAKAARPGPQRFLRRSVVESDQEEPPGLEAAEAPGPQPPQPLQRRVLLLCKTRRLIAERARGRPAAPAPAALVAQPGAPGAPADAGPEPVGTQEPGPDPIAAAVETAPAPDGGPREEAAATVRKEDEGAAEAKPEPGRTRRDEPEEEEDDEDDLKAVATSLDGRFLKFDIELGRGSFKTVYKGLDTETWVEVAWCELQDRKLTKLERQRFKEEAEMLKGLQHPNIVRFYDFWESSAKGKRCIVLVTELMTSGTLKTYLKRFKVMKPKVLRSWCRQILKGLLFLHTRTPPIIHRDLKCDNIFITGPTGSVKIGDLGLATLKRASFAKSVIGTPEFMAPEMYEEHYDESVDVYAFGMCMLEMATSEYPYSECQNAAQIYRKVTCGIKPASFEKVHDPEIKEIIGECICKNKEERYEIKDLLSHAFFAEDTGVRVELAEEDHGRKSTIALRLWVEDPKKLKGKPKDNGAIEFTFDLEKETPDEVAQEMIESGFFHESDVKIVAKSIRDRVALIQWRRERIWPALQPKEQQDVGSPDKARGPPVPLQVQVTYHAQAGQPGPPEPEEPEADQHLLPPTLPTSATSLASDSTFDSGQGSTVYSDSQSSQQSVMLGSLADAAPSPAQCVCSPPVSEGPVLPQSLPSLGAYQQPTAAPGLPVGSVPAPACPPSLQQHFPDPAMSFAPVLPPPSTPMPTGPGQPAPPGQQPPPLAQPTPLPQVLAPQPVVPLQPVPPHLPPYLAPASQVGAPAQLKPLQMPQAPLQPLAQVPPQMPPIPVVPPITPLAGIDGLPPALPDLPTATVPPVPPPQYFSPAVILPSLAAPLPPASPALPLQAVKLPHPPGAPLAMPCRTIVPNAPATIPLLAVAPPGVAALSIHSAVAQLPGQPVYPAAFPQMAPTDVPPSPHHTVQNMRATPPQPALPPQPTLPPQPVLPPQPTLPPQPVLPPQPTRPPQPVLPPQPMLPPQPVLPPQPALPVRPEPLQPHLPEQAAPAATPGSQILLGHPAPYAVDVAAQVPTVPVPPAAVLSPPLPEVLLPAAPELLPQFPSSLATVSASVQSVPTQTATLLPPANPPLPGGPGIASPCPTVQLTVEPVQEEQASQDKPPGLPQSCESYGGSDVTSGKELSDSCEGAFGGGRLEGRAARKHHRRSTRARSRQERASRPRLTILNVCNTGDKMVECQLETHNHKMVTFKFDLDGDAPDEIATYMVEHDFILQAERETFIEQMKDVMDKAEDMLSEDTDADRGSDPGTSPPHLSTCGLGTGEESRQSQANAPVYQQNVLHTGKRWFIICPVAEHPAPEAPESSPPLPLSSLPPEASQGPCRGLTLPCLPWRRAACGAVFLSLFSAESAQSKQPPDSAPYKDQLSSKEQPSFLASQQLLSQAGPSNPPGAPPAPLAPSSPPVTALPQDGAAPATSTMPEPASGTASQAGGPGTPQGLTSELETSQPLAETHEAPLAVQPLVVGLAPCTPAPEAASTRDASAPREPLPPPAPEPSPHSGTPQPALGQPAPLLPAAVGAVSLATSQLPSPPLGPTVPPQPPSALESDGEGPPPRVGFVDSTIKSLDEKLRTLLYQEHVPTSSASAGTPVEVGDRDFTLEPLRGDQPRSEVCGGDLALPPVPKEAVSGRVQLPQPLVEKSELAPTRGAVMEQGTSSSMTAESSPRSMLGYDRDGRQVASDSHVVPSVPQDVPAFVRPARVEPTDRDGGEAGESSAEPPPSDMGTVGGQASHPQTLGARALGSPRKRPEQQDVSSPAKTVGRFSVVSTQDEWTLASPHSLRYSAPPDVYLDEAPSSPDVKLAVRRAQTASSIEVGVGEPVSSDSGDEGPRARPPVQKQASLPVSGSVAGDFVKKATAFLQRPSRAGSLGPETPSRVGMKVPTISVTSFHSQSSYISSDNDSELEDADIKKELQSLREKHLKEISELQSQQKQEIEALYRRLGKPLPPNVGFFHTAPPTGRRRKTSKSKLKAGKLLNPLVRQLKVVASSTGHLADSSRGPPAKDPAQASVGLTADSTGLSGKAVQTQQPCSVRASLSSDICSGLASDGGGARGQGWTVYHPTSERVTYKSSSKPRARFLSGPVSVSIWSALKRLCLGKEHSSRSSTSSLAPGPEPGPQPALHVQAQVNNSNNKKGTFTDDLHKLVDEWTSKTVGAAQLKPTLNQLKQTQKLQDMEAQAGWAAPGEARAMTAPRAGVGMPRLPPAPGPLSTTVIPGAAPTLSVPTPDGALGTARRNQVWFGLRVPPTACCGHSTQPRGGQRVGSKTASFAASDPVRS
Chain of UniProt P48729 (whole entry, looked up): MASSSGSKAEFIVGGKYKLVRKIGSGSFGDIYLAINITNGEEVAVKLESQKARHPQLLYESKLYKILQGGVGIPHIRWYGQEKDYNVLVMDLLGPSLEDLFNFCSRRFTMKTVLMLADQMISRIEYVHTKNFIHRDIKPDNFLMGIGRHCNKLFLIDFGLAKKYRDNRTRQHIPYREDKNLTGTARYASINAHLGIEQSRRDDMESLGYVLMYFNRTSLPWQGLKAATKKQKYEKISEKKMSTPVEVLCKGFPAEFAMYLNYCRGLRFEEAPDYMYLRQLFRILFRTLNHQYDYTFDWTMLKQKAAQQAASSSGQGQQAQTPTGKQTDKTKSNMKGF
Chain of UniProt Q07002 (whole entry, looked up): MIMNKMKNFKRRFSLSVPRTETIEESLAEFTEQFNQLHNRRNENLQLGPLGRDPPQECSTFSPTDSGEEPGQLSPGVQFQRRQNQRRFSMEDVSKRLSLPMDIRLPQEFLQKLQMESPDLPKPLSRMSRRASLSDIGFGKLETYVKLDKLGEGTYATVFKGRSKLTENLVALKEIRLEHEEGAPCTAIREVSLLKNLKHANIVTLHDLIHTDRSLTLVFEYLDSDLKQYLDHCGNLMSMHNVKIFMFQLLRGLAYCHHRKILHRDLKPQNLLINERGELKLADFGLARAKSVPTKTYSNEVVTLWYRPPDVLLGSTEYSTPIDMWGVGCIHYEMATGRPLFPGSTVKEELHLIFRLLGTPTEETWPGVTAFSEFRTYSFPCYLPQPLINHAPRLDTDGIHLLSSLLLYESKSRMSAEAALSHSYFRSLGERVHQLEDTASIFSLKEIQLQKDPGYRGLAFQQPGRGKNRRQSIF

Block 1 — read-out: enzyme activity; action: inhibitor; tested at: 0.5 µM; relative to: control; endpoint: remaining activity
SMILES: CC(=O)O/N=C1/C(c2c(O)[nH]c3cc(Br)ccc23)=Nc2ccccc21
MKNK2 (Homo sapiens, UniProt Q9HBH9): 66.9%
MAP2K6 (Homo sapiens, UniProt P52564): 87.2%
MAPK12 (Homo sapiens, UniProt P53778): 85.2%
IRAK4 (Homo sapiens, UniProt Q9NWZ3): 94.1%
BTK (Homo sapiens, UniProt Q06187): 27.3%
CSNK2A1 (Homo sapiens, UniProt P68400): 81.8%
CSNK1A1 (Homo sapiens, UniProt P48729): 68.5%
WNK2 (Homo sapiens, UniProt Q9Y3S1): 98.6%
Cyclin-dependent kinase 9, with cyclin T1 (CDK9, Homo sapiens, UniProt P50750): 91.5%

Block 2 — host: female C57BL/6 mouse; medium: plasma; route: oral; dose: 10 mg/kg; endpoint: Cmax
CNC(=O)c1ccc(-c2cnn3ccc(C(=O)N(C[C@H]4CCC(=O)O4)c4ccc(OC(F)(F)F)cc4)cc23)cc1: 31.7 nM
COC(=O)c1cc(Cl)ccc1N(C)C(=O)c1ccn2ncc(-c3ccc(C(N)=O)cc3)c2c1: 32.7 nM
CN(C(=O)c1ccn2ncc(-c3ccc(C(N)=O)cc3)c2c1)c1ccc(C#N)cn1: 659 nM
CCOC(=O)CN(C(=O)c1ccn2ncc(-c3ccc(C(=O)NC)cc3)c2c1)c1ccc(Cl)cc1: 293 nM
CNC(=O)c1ccc(-c2cnn3ccc(C(=O)N(CC(=O)O)c4ccc(Cl)cc4)cc23)cc1: 50 nM

Block 3 — cell line: mouse MPNST tumor cells; method: high-content nuclear imaging; refers to: cell number; tested at: 10 µM; time: 12 h; notes: mean of 2 replicates; relative to: plate mean; direction: higher = more cells; endpoint: nuclei count
CNC(C)CCC=C(C)C (centres unmarked): 0.388 z-score
O=c1[nH]c(=O)n([C@H]2C[C@H](O)[C@@H](CO)O2)cc1C(F)(F)F: -0.258 z-score and -1.66 z-score
Cc1ccc(NC2=CC(=O)c3sc(C)nc3C2=O)cc1: -4.66 z-score
CC(=O)[C@H]1CC[C@H]2[C@@H]3CCC4=CC(=O)CC[C@]4(C)[C@H]3CC[C@]12C: 2.53 z-score
CCN(CC)CCOC(=O)C1(C2CCCCC2)CCCCC1: 3.44 z-score

Block 4 — read-out: cell-free assay; method: competition with immobilised ligand; tested at: 1 µM; endpoint: remaining binding
SMILES: CNCc1ccccc1-c1csc([C@H](C)Nc2nc(C)nc3cc(OC)c(OC)cc23)c1
TAOK3 (Homo sapiens, UniProt Q9H2K8): 75%
ULK3 (Homo sapiens, UniProt Q6PHR2): 88%
KIT (Homo sapiens, UniProt P10721, V559D/V654A): 100%
EGFR (Homo sapiens, UniProt P00533, L861Q): 97%
CDK18 (Homo sapiens, UniProt Q07002): 100%
Tyrosine-protein kinase ABL1, non-phosphorylated (ABL1, Homo sapiens, UniProt P00519, T315I): 95%
Non-receptor tyrosine-protein kinase TYK2, JH1 (TYK2, Homo sapiens, UniProt P29597): 100%
Ribosomal protein S6 kinase alpha-5, N-terminal kinase domain (RPS6KA5, Homo sapiens, UniProt O75582): 100%
MAP3K2 (Homo sapiens, UniProt Q9Y2U5): 100%
FLT3 (Homo sapiens, UniProt P36888, D835V): 88%
Tyrosine-protein kinase ABL1, phosphorylated (ABL1, Homo sapiens, UniProt P00519, H396P): 95%
EGFR (Homo sapiens, UniProt P00533, T790M): 76%
SNRK (Homo sapiens, UniProt Q9NRH2): 93%
Ribosomal protein S6 kinase alpha-3, N-terminal kinase domain (RPS6KA3, Homo sapiens, UniProt P51812): 100%
EGFR (Homo sapiens, UniProt P00533, A750P/del747-749): 98%
PTK6 (Homo sapiens, UniProt Q13882): 100%
DDR2 (Homo sapiens, UniProt Q16832): 94%

Mixed results
CC(C)n1cnc(-c2ccc(F)cc2)c1-c1ncc(C(=O)Nc2ccc(N3CCN(C)CC3)cc2)[nH]1
blood bilirubin increased (IPF patients; 30 mg once daily, adverse event incidence): 0%

OCCN1CCN(CCCN2c3ccccc3Sc3ccc(Cl)cc32)CC1
blood urea nitrogen (mouse, serum; dose not given): 26.7 ± 2.4 mg/dL

Repeated from above (block 4):
Non-receptor tyrosine-protein kinase TYK2, JH1 (TYK2, Homo sapiens, UniProt P29597): 100%
Ribosomal protein S6 kinase alpha-5, N-terminal kinase domain (RPS6KA5, Homo sapiens, UniProt O75582): 100%
MAP3K2 (Homo sapiens, UniProt Q9Y2U5): 100%
FLT3 (Homo sapiens, UniProt P36888, D835V): 88%
Tyrosine-protein kinase ABL1, phosphorylated (ABL1, Homo sapiens, UniProt P00519, H396P): 95%
EGFR (Homo sapiens, UniProt P00533, T790M): 76%
